# Assay results of several laboratories.
# Each numbered part is a random draw from the data of one study; scales do not carry over between parts.

# Series 1 — technique: RNA Bind-n-Seq; molecule type: RNA; matrix: in vitro; concentration: not given; setting: RNA with constant flanks, ends assumed; reference: input RNA pool; direction: higher = stronger binding
# Target: RING finger protein unkempt homolog, zinc fingers 1-6, GST-SBP tag (UNK, Homo sapiens, UniProt Q9C0B0, residues 30-357)
# Sequence of UniProt Q9C0B0 (30-357, looked up): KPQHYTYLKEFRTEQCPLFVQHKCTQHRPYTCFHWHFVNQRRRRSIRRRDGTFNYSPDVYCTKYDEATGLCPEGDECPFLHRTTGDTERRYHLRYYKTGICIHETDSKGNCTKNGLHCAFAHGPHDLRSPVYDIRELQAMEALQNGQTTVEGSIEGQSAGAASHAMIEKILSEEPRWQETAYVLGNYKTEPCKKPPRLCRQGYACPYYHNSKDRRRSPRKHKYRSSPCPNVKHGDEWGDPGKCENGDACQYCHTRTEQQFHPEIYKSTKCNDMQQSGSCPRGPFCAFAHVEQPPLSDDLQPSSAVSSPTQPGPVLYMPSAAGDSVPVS
# Constant ends, left off below: GGGAGUUCUACAGUCCGACGAUC … CAACAGAGGAUUGAGCAUCA
Oligonucleotide,bound/input enrichment [ratio]
CGGGGAGCUUUCUGUGAAGUGAGACCAGAUGAUAAAAGAAUUCUGGAAUUUUACAGCAAGUCCGGAUGUUUUGAAAUUGCAAAAAUGGAAGGAUUUCCAAAGGAUGUGGUUAUACUUGGU,0.163
AUUAAAAAUGCUUGUCUACAAACAUCUUCCCUUGCGGUUCGUGUAAAUUCAUUAGUGUGCUCCGGAAAGAUUUUGGAAUACUUGGAUAAGUGGUUUGUACUUGAUGAUAUCCUACCCUUC,0.169
CAGUUGAAGUAUCAGAGAAUCUUGGAACGAUUAGAAAAGGAGAACAAAGAAUUGAGAAAAUCCGUAUUGCAGAAAGAUGACAAAGGCAUUCAUCAUAGAAAGCUUAAGAAAUCUUUGAUU,0.252
CCUCCCCAUUACCCCUAAAGUAGAACAUUUUUUAAAUUGUGUUGCCACCACUUCUAAAAAUUCCGCAAUAUUAGAAUAGGAUACUAGUGAAGUAAGAAAUUUUGCUUGUUGUUUUGCAAA,310
UCGGUCUUCAAUAACAAGAACAGUGGCUUCUGGCACAGCAGCCUCAUUGACCGGAACCUCACCGAUUAUUUUGUCCCCUUCCUGCCCCUGGAGUACAAGCACCUGAAAAUGUGCAUCAGA,0.177
UUAGCUUAUGGCAAUCAAGAGAGCAAGCUCAUCAUUCUGGCCAGUGGUGGACCCCAAGCCUCCGUAAACAUAAUGAGGACCUACACUUAUGAGAAGCUUCUGUGGACCACAAGCAGAGUG,0.352
GAUUCAUUGCCUGCUUUACUGGAAUUCUACAAAAUACACUAUUUGGACACUACAACAUUGACCGAACCAGUGGCCAGAUCAAGGCAGGGUAGUGGAGUGAUUCUCAGGCAGGAGGAGGCA,0.29
GAACUGGUGGACUACAUUACAAUAAGCAGAGGCUGUUUGACAGAGCAGACUUACCCUGAAGCCGUCCGAAUGGUAUCUUGCAAUAUAUUCAGAACUCUCCCUCCUAGUGACAGCAAUGAA,0.268

# Series 2 — technique: protein binding microarray; molecule type: double-stranded DNA, one strand shown; matrix: in vitro; concentration: not given; reference: not given; direction: higher = stronger binding
# Target: Histone acetyltransferase KAT6A, winged helix 2, GST fusion (KAT6A, Homo sapiens, UniProt Q92794, residues 85-181)
# Setting: 8-mer, flanks averaged, mean of 2 arrays, mostly near background
# Construct (chain): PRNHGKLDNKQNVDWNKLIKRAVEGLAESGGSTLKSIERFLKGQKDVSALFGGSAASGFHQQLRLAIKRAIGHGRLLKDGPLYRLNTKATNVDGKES
Oligonucleotide,E-score
CGGCGTTA,0.00434
GGTCTGAA,0.0578
CCTACGAG,-0.0201
TATATGGA,-0.0604
GAGGCTAA,-0.0188
GTCAGCTA,-0.0982
ACCAGACG,0.0286
ACATACGT,-0.244
GAGTGGAA,0.00572
CGTCCTTA,-0.119
CGCAGCGA,0.199
GCGTATGA,0.0188
CTTGCGAA,0.162
GCTGGCCA,-0.00898
AAAACTTA,0.0491
ACAACAGG,-0.0684
TCCACGCA,-0.0155
AGGTCGTA,-0.159
CTAACGAG,-0.0133

# Series 3 — technique: RNA Bind-n-Seq; molecule type: RNA; matrix: in vitro; concentration: 365 nM; reference: no-protein control; direction: higher = stronger binding
# Target: RNA binding protein fox-1 homolog 2, RRM domain, GST-SBP tag (RBFOX2, Homo sapiens, UniProt O43251-10, residues 100-194)
# Setting: natural RNA segment, single round, ends assumed
# Constant ends, left off below: GGGAGUUCUACAGUCCGACGAUC … UGGAAUUCUCGGGUGCCAA
Oligonucleotide,RBNS enrichment (R)
GGAUCUCAGAAUAUAUUCGUCCACCCCCUCGGCACCCCAUUACCCCGAGUCCCACCGUGUGUCCGUUGUAAGUCCGGUGGAUGUGGCUGGGGUUUCCUGGUAUUGUGGAG,0.38
GACACCUUGAGUCUGGGUGAGUUGCUGCUGGCUGAGCCCUCCUGGCAGGCAGGGAGAGAAGACGCCUGGGCCUCUCCAUUGUUUGUUUCCCAGGGUGAUUUCCUCAGUGC,1.36
UGUUGUCGUCGUUGUUUUGAGACGGAGUCUUGCUCAGGUGCCCCGGAGUGCAGUGGUGCAAUCUCAGCUCACUGCAACCUCCACCUCCUGGGUUCAAGCAAUUCUCCUGC,0.409
UUGUCCUCUCCUUGUCCCUUCAUCUUGGCUGGGCACAGUAUAUGAGUCCCCACGUGGUCGAGUCUGGAUCUGUAAAACUCUUCUGAUAAUGGCAAUACUUUAGGGCAGAG,0.81
AUUUUGUGCAGUUAAUACUUAACAUUGAUUUAUUUUUUAAUCAUUUAAAUAUUAAUCAACUUUCCUUAAAAUAAAUAGCCUCUUAGGUAAAAAUAUAAGAACUUGAUAUA,0.716
GAGACGGGAGGGUGGAGUGAGACCCUCUGCGCUGAGUCCUCAGGGCUGUCUUGGAGGUAAGUGGAAGUAGUGGGCCCUGCUUCUUUUCUUUGUAGCCUUCCGGCUACAUC,0.416
GGAAAGUCCACUUCAGCCACCAGGAGCAAAGCUGAAAUGGCAUUUGUUUUUCACACCUGGGGUCAGGGGUAUCGAUAGUCACGGCUGCCAUUGGCUUUAGGUCUCUGGAC,0.405
GCCAUGGGCCCACAGAGUCUCGCUAUCAUCCCCAGCGUCGCAGUGUGGCAGGUGUUUGUAGGCUGUGGGUUCUGGCCACCUCGGGAAAUGAAUGGCACAGGUGAGGGCCU,0.684

# Series 4 — technique: universal PBM; molecule type: double-stranded DNA, one strand shown; matrix: in vitro; concentration: 600 nM; direction: higher = stronger binding
# Target: Sal-like protein 4, full length isoform A (SALL4, Homo sapiens, UniProt Q9UJQ4, residues 1-1053)
# Sequence of UniProt Q9UJQ4 (whole entry, looked up): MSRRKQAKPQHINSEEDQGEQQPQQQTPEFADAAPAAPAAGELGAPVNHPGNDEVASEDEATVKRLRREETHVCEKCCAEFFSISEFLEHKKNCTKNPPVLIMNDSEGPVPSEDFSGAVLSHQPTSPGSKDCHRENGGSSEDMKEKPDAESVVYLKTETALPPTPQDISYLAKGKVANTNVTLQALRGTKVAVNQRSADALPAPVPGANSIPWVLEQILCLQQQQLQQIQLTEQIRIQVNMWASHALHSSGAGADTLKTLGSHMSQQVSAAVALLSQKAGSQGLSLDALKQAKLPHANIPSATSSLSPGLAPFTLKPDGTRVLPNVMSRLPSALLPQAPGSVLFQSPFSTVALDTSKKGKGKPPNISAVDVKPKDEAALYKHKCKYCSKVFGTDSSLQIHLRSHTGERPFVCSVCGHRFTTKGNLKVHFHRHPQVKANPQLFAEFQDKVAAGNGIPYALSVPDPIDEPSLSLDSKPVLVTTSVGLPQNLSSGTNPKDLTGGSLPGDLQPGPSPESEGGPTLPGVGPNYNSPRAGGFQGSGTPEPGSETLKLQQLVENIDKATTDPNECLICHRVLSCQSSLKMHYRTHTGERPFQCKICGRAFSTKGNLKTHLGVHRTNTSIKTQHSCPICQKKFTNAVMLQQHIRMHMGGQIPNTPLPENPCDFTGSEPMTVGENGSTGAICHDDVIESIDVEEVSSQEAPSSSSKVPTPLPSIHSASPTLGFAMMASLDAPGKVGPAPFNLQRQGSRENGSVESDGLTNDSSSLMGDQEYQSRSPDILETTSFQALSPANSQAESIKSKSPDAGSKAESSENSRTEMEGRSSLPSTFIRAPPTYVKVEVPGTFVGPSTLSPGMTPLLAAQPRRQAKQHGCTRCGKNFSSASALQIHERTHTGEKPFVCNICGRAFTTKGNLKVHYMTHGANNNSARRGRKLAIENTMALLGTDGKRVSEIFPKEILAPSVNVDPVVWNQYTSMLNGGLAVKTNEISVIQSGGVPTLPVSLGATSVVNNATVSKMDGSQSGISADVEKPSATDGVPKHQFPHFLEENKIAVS
# Setting: 8-mer, flanks averaged, mean of replicates
Oligonucleotide,E-score
TGATGACA,0.0114
CCACCGGG,-0.38
AATTGTGA,0.267
GAGCAGCA,-0.0979
CAGCTTAA,0.0242
CATGGTCA,0.0877
TGACGTCA,0.138
AAAACGTT,0.14
AGAGGGCG,-0.23
GAAACATC,0.108
ACGGGAAA,-0.0822
AGGGTAAT,0.166
AGAGGGTG,-0.214
CAGGACAG,-0.295
CAAGATCA,0.0496
GCGTAAAA,0.149
CACCAGAA,-0.0301
CTATCTCA,0.0805
ATGACGCC,-0.154
AACCCGGA,-0.296
CCTCGTAG,-0.0223
AAAATAGG,0.287
CCTACCGC,-0.309

# Repeated from above (series 4):
Oligonucleotide,E-score
AGGGTAAT,0.166
AGAGGGTG,-0.214
CAGGACAG,-0.295
CAAGATCA,0.0496
GCGTAAAA,0.149
CACCAGAA,-0.0301
